Measured values of several laboratories.
Numbered parts are unrelated; each lists some results of a single study.

Sample 1 — technique: protein binding microarray; molecule type: double-stranded DNA, one strand shown; sample: in vitro; tested at: not given; reference: not given; direction: higher = stronger binding; endpoint: E-score
Target: Histone acetyltransferase KAT6A, winged helix 2, GST fusion (KAT6A, Homo sapiens, UniProt Q92794, residues 85-181)
Setting: 8-mer, flanks averaged, mean of 2 arrays, mostly near background
Target sequence (chain): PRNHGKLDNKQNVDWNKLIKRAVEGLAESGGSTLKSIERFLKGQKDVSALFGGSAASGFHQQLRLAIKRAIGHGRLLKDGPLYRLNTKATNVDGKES
ATAATTAG: 0.0527
ATGTTGCG: 0.0949
AATGTGCT: -0.0604
AGCATAGA: 0.131
TCCACCAA: 0.108
ATGTTGGA: 0.0503
ACTACGTA: -0.0786
CTACATCC: -0.159
ATGTGGGA: -0.19
ACTGTCAG: -0.103
GGTTCTCA: -0.0941
GCGGTCTA: 0.156
CTTTGCAA: 0.196
AGGCGATC: -0.0632
GACCTGAC: 0.11
ACTCGCTC: 0.192
AAATTGGC: -0.165
ACTAGTGC: -0.0146
AATCCCAG: 0.0482
ATAACTAC: -0.0454
ATCGACCC: -0.00314
GCCGTCAC: 0.181
ACAAGAAT: -0.0759

Sample 2 — technique: RNA Bind-n-Seq; molecule type: RNA; sample: in vitro; tested at: 1 µM; setting: whole 134-nt RNA, ends assumed; with: 150 mM KCl; reference: input library; direction: higher = stronger binding; endpoint: log2 enrichment
Target: Ras GTPase-activating protein-binding protein 1, C-terminal RGG region (G3BP1, Homo sapiens, UniProt Q13283)
Sequence of UniProt Q13283 (whole entry, looked up): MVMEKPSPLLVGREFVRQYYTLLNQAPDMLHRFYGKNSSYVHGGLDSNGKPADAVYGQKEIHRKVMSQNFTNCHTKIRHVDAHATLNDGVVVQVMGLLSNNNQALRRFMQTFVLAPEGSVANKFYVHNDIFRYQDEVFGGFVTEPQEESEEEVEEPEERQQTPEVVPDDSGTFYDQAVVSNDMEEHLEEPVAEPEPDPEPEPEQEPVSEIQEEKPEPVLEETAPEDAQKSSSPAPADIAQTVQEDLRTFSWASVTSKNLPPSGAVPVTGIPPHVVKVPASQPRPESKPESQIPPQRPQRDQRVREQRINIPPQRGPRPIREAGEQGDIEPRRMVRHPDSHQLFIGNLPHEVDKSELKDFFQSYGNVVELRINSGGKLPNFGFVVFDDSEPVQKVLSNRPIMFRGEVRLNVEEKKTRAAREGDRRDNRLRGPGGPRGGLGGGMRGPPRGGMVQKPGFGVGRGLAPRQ
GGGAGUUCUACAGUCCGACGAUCCACAGACAACACGCACCCACACAGACACAGAGGGAAGUGGUUGGGAUGGGGACAGGGUGCACAGCAGGGCGGGGUAGGACCCCAGCCCCUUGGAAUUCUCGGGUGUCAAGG: -0.423
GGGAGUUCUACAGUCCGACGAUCUAACUUUAGAGGAGGAUCUGAUGGAUAUGGCAGUGGACGUGGAUUUGGGGAUGGCUAUAAUGGGUAUGGAGGAGGACCUGGAGGUGGCUAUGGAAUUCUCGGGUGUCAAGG: -0.862
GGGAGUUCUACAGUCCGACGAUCGUCCUGUGCUACACAUCGUAUGUACCGAAUCGGGAAAAGGGGAAAAGGGGAAAAGGGGAAAGUAUUAUGUUACGCCGUUCGGAUCUGCACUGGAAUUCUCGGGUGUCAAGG: 0.442
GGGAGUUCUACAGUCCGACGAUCCCUCAAGUCCUGUGCUACACAUCGUAUGUACCGAAUCGGGUGGGGUGGUGGGGAAAGUAUUAUGUUACGCCGUUCGGAUCUGCACUUCCAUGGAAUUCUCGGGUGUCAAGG: 0.875
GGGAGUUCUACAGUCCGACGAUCGCAGGAAGUAAAAACAAAUGGAAAUGCUUCGGAUAGUGGCAGGGGUGGGGGGUGCUAAGGAAAGGGUGGGAUGGGAGUGGGUAAAGAGUUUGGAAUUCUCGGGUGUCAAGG: 0.596
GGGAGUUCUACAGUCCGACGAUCAAGUCCUGUGCUACACAUCGUAUGUACCGAAUCGGGUGGGUUUGGGUUUUUUUGGGAAAGUAUUAUGUUACGCCGUUCGGAUCUGCACUUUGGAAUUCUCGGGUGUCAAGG: 0.587
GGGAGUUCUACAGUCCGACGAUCUGGGAGGUGGAUUUUGUUUAUUUUUUUAGCUCAUUUCCAGGGGUGGGAAUUUUUUUUUAAUAUGUGUCAAGAAUAAAGUUGUUUUUGAAAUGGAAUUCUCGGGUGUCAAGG: 2.69
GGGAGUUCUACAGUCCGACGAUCUUUUUGAAUCAAUUUUUAAAACAUGCCAUUGUGUUUCAGGCUCGCGGGAUUGAUGUGCAACAAGUGUCUUUGGUUAUAAAUUAUGAUCUAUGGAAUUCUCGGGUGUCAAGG: -0.545
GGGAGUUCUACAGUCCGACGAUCUCCUCAAGUCCUGUGCUACACAUCGUAUGUACCGAAUCGGGUGGGUGGUGGAAAGUAUUAUGUUACGCCGUUCGGAUCUGCACUUCCAGCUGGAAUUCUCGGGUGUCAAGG: -0.0189
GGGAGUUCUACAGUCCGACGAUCUGGCCCUGGUGGCAUGCGGGGAGGAAGAGGUGGCCUCAUGGAUCGUGGUGGUCCCGGUGGAAUGUUCAGAGGUGGCCGUGGUGGAGACAUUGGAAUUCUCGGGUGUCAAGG: 3.4

Sample 3 — technique: RNA Bind-n-Seq; molecule type: RNA; sample: in vitro; tested at: 365 nM; reference: no-protein control; direction: higher = stronger binding; endpoint: RBNS enrichment (R)
Target: RNA binding protein fox-1 homolog 2, RRM domain, GST-SBP tag (RBFOX2, Homo sapiens, UniProt O43251-10, residues 100-194)
Setting: natural RNA segment, single round, ends assumed
Residues (chain): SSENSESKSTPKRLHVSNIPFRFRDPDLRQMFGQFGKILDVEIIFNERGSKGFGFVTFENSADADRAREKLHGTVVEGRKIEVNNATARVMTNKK
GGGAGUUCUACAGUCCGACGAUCGUGCUGGAGCCAUGGUGUCCUUUGGAGGGACAACGGUGCACGCGGCAUGUAUCCUGGCUGAAGCGCUGCAAUCUUACACUAGCCACAGGGUACUGUUUUGAGCCAAAGGCUGGAAUUCUCGGGUGCCAA: 0.343
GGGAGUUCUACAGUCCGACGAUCGCCAUCGGAGGUGCCUGAAGAGCUUGUGUCAGGGAGCGGUUUGGCCAGUCAGAGACAAGUCCCAAGAGAUUUCAUGGAGCCUUGGAUGACACACACGCCAUCAGCCCUUGUGGAAUUCUCGGGUGCCAA: 2.48
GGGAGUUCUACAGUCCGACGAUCAAGUUUCUUUAAAAGUAUUGUUGUAUUUCAGCUGAACUCUUGUAUCUGCAGUCUUUUGUUAUUUCUGCAGGCUACACCCUUAAUUUGCAGAGGCCAUUUUGUUGUUUGUUUGGAAUUCUCGGGUGCCAA: 0.517
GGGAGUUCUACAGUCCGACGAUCGGGUCAGGGUGGAACAGGGACAGUUUGGUGGUUGCGGGGCCCUGACUCCCUGGGCUCCCCCCUGCCUUCAUCUCACAAGAAACUUCCUGAUGCAUCAAACUUGAGUUUUUUGGAAUUCUCGGGUGCCAA: 0.765
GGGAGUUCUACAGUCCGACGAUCCUCAAGAUGUAUCUGAGUAGCUGCCUGAAAGCAGAUGACACUGCAGUCAGGAGGUGAGAGGCUGAGGAAAGAGCCAGCAUCAGGAGGUGACUCUGGUUGGCAAGGGUGAGUGGAAUUCUCGGGUGCCAA: 0.486
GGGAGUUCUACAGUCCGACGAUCAGUAACUCACCUUUAAAACAACAGGCUCUGAUUUGCUGAAGAGGUUUGGUAUUUUUUAAGGUAUGUCUCCCUGUUUGCACUCAGGGUUAAAGUGUCAGACUAAAUUUUUAUGGAAUUCUCGGGUGCCAA: 0.565
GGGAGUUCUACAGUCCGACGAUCGUUUUAUUUUUAUCCACUGUUUUGUUGUUGUUUUUUUAUAUUUUCUACAUAUCACGUGUGAGACAACUUCUUUCACAUCUCCAUAGUGCCCAGCAAAUUUGAGGCCUAUGUGGAAUUCUCGGGUGCCAA: 1.05
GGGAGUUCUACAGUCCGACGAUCCAAGUGUUCUAACUAAAUGUGUGAGCUGUAGUUCUUGAUGUUGUAUAACUAAGCCUGUAAUUGGGCUGGUUUCUCUUACACCCUAGCACAGUUAAAAAAUGAAGUACUGUUGGAAUUCUCGGGUGCCAA: 0.409
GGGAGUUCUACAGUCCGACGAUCUAUAGCGGGUACCAGAGGAAAGCUGGCAGCAGUAACUCUCUCCCCAUGCAUCCUAGCCAGUGAGUGCUACAUCCUUUGCAAGUGGAGUUACUGGCCUACCCUUACCCCAUUGGAAUUCUCGGGUGCCAA: 0.934
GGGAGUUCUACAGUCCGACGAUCUGUACUAGUCAUGGAUCUUUCUCUCCCUGGCAUGUGAAAGUCAGUCUUAGAGGAAGAGAUUCCACUUGCACGGCAACAGAGCCUUACGUUAAAUUUUCAGUCCAGUUAUGUGGAAUUCUCGGGUGCCAA: 0.851
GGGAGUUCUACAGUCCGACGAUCACUGGGCCCAGGCCAGGAGGGGCCCUGCCCAUGCCCACACUACAGGCCAGGGCUGCGGGGCUGGCGCAAUCCCAGCCCCCUUCCCCGGGCCACGGGGCCUUGGGUCCCUGUGGAAUUCUCGGGUGCCAA: 0.379
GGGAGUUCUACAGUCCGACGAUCACACCUUCAGCAGUGAAGGAUUCUAACACAGGGAAUCUGCAGUUUGUAGCAGAAUGGUAUUUUCCUCAAGUAGCUCAUAAUACUGCCAAAUCUCAAAAGUUAAGCUGAAUUGGAAUUCUCGGGUGCCAA: 0.321

Sample 4 — technique: protein-binding microarray; molecule type: double-stranded DNA, one strand shown; sample: in vitro; tested at: not given; direction: higher = stronger binding; endpoint: E-score
Target: Hepatocyte nuclear factor 3-beta, forkhead domain (FOXA2, Homo sapiens, UniProt Q9Y261, residues 142-269)
Setting: k-mer, scored over probes, only values ≥0.25
Construct (chain): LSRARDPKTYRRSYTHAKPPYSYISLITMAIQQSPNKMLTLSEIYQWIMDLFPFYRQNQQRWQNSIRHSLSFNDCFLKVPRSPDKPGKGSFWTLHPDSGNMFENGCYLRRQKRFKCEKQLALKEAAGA
ACAAAGTA: 0.268
GCAAACTA: 0.25
AACACACA: 0.352
ATTTTACC: 0.258
ATTTATCC: 0.285
ACAAATAT: 0.421
GGAATATA: 0.295
GACTATAA: 0.261
ATAGTTAC: 0.299
ATATTCAT: 0.328
CTATATTA: 0.327
ATGATAAT: 0.282
TAAACACA: 0.353
ATTATGAA: 0.251
GATAAGTA: 0.265
ATGTCACA: 0.317
GTATTCCA: 0.261
ACGGATAT: 0.271
ATATGATC: 0.277
ACTTAAAC: 0.263
AACTACCA: 0.286
TACAACAA: 0.309
GATAAATA: 0.313
TCTTTACA: 0.28

For quick reference, copied from above (sample 4):
ACGGATAT: 0.271
ACTTAAAC: 0.263
ATTTTACC: 0.258
ATGATAAT: 0.282
GATAAGTA: 0.265
GATAAATA: 0.313
ATTTATCC: 0.285
ACAAAGTA: 0.268
GGAATATA: 0.295
ATATTCAT: 0.328
